Experimental data pooled from the literature.
Protocols differ between the studies behind these lines. Values joined by “and” are separate records of one study, mostly repeats; a detail may differ. Numbers after ± are the reported error.

CCCCN1C(=O)c2cccc3c(NCCCCN4CCOCC4)ccc(c23)C1=O  absorption maximum (toluene): 424 nm
CC(C(=O)O)n1nc(Cn2cc3cc(OCC[18F])c(Cl)cc3n2)c2ccccc2c1=O (racemic)  tracer uptake (rat, bone; 1 h): 0.12 %ID/g
C=C(NC(=O)c1csc(-c2nc3c(cc2O)-c2nc(cs2)C(=O)NC(C(C)O)C(=O)NC(=C(C)OC)c2nc(cs2)C(=O)NC2c4nc(cs4)C(=O)NC(COC(=O)c4c5c6c(cccc6n4O)COC(=O)C(OC4CC(C)(O)C(N(C)C)C(C)O4)C2OC5)c2nc-3cs2)n1)C(N)=O (centres unmarked)  MRT(0-t) (ICR mice, Streptococcus pneumoniae ATCC 49169 infected, immunocompromised, blood; intravenous, 2 mg/kg/day twice daily): 2.86 h
Cc1ncc2c(n1)CN(C(=O)Nc1nc(-c3cccs3)ccc1N)C2  fraction unbound (mouse, brain homogenate): 0.297
C/C(N)=N/C(=N\S(=O)(=O)c1ccc(C(F)(F)F)cc1)N1C[C@H](c2ccccc2)C(c2ccc(Cl)cc2)=N1  half-life (beagle dog, plasma; oral, 6 mg/kg): 8 h
COc1ccc2c(c1)C(C)(C)C(/C=C/C1=C(Oc3ccc(C(=O)NCCCCOc4cc(CN(Cc5ccccn5)Cc5ccccn5)cc(CN(Cc5ccccn5)Cc5ccccn5)c4)cc3)C(=C/C=C3/N(CCCCS(=O)(=O)[O-])c4ccc(OC)cc4C3(C)C)CCC1)=[N+]2CCCCS(=O)(=O)[O-].O=[N+]([O-])[O-].O=[N+]([O-])[O-].[99Tc+].[C-]#[O+].[C-]#[O+].[C-]#[O+].[Zn+2]  thyroid/trachea uptake (biodistribution; BALB/c mouse, healthy; 12 h post-injection): 1.14 %ID/g
CCn1c(=O)c(-c2cc(NC(=O)Nc3ccccc3)c(F)cc2Br)cc2cnc(N)cc21  long-term stability accuracy (human plasma; 4000 ng/mL, 1 months, -20 °C, high QC): -2.77%
Cc1ccc(OCC(=O)N(Cc2cccs2)c2ccn[nH]2)cc1  remaining compound (dog plasma; 750 ng/mL, 4 h, 37 °C, unit not given; relative to: time zero): 97.7
O=C(Nc1cnccc1-c1ccc([18F])nc1)c1ccnc(NC(=O)C2CC2)c1  mean SUV (ex vivo gamma counting; FVB/NJ mice, both sexes, left kidney; intravenous, 120 min): 0.324
CN(O)C(=O)CCC(=O)NCCCN(CCCCN(CCCNC(=O)CCC(=O)N(C)O)C(=O)CCC(=O)N(C)O)C(=O)CCC(=O)N(C)O.[89Zr]  intact complex (radio-TLC; aqueous buffer; 1 d, pH 7.2, 37 °C, 89Zr-labelled complex, with: MgCl2 10-fold excess): 99.7 ± 0.6%
CCCCN1C(=O)c2cccc3c(NCCCN4CCOCC4)ccc(c23)C1=O  fluorescence lifetime (DMSO): 10.1 ns
Cc1noc(C)c1Cn1cc(N2C(=O)CN(Cc3cccc(OS(=O)(=O)O)c3)C2=O)cn1  plasma concentration (Sprague-Dawley rat, male; oral, 30 mg/kg of parent drug, 4 h): 3370 ng/mL
CC(C)(C)[C@H](NC(=O)C(F)F)C(=O)N1C[C@H]2[C@@H]([C@H]1C(=O)N[C@H](C#N)C[C@@H]1CCCNC1=O)C2(C)C  intrinsic clearance (human liver microsomes; scaled to liver): 27.4 mL/min/kg
CC(C)C[C@H](NC(=O)[C@H](CCCN)NC(=O)CNC(=O)[C@@H](NC(=O)[C@H](C)NC(=O)[C@@H]1CSCSC[C@H](NC(=O)CC[C@H](N)C(=O)O)C(=O)N[C@@H](CC(N)=O)C(=O)N[C@@H]([C@@H](C)O)C(=O)N[C@@H](C)C(=O)N[C@@H]([C@@H](C)O)C(=O)N1)[C@@H](C)O)C(=O)N[C@@H](C)C(=O)N[C@@H](CCC(=O)O)C(=O)N[C@@](C)(Cc1ccccc1)C(=O)N[C@@H](CC(C)C)C(=O)N[C@H](C(=O)N[C@@H](CCCNC(=N)N)C(=O)N[C@@H](CO)C(=O)N[C@@H](CO)C(=O)N[C@@H](CC(N)=O)C(=O)N(C)[C@@H](CC(N)=O)C(=O)N[C@@H](Cc1ccccc1)C(=O)NCC(=O)N1CCC[C@H]1C(=O)N[C@@H](CCCCNC(=O)CC[C@H](NC(=O)CC[C@H](NC(=O)CCCCCCCCCCCCCCCCCCC(=O)O)C(=O)O)C(=O)O)C(=O)N[C@@H](CC(C)C)C(=O)N1CCC[C@H]1C(=O)N1CCC[C@H]1C(=O)N[C@H](C(=O)N[C@@H](CCC(=O)O)C(=O)N[C@H](C(=O)NCC(=O)N[C@@H](CO)C(=O)N[C@@H](CC(N)=O)C(=O)N[C@H](C(=O)N[C@@H](Cc1ccc(O)cc1)C(N)=O)[C@@H](C)O)C(C)C)[C@@H](C)O)C(C)C  AUC extrapolated (healthy humans, plasma; subcutaneous, dose not given): 4.5%
CC(C)C[C@H](NC(=O)[C@@H](CCCCNC(=O)[C@@H](Cc1ccccc1)NC(=O)CCCCCCCNC(=O)CN1CCN(CC(=O)O)CCN(CC(=O)O)CCN(CC(=O)O)CC1)NC(=O)[C@H](Cc1ccc(O)cc1)NC(=O)[C@H](CO)NC(=O)[C@H](Cc1c[nH]c2ccccc12)NC(=O)[C@H](Cc1c[nH]cn1)NC(=O)[C@@H]1CCC(=O)N1)C(=O)N[C@@H](CCCNC(=N)N)C(=O)N1CCC[C@H]1C(=O)NCC(N)=O [indium-111 labelled]  urinary excretion (male athymic nude mice, DU-145 xenograft, urine; intravenous, dose not given, 1 h, with: 10 µg unlabelled blocking peptide): 83.5 ± 4.25%
CC(C)(O)c1ncc([S@](N)(=O)=NC(=O)Nc2c3c(cc4c2CCC4)CCC3)s1  share of subjects with TEAEs (item: all system organ classes; healthy human subjects; oral, dose not given, all active doses): 63%
COc1cccc(OC)c1-c1cc(C(=O)NC2(C(=O)O)C3CC4CC(C3)CC2C4)nn1-c1ccc(C(=O)N(C)CCOCCN(C)C(=O)[C@H](CCCCNC(=O)[C@H](CC(C)C)NC(=O)C2OC2C(=O)O)NC(=O)CN2CCN(CC(=O)[O-])CCN(CC(=O)[O-])CCN(CC(=O)[O-])CC2)cc1C(C)C.[177Lu+3] (mixture of isomers)  tumour-to-liver ratio (mouse, HT-29 xenograft; 72 h post injection, biodistribution; relative to: tumour over liver uptake): 3.7
O=C(Nc1cnccc1-c1ccc([18F])cc1)c1ccnc(NC(=O)C2CC2)c1  SUV (FVB/NJ mouse, both sexes, brain; intravenous, 5 min, with: tariquidar 15 mg/kg iv): 0.99
CCC(=O)N(C)c1ccc(Cl)c(Cl)c1  plasma concentration (LC-MS/MS; mouse C57BL/6 female, plasma; intravenous, 2 mg/kg, 0.5 h): 184 ng/mL and 214 ng/mL
CNC(=O)C1CCCN(C(=O)C2CC3CCC2N3C(=O)[C@@H]2C[C@@H](O)CN2C(=O)NCc2cccc(Cl)c2F)C1 (mixture of isomers)  intrinsic clearance (monkey liver microsomes): 21.6 µL/min/mg

For quick reference, copied from above:
CCCCN1C(=O)c2cccc3c(NCCCN4CCOCC4)ccc(c23)C1=O  fluorescence lifetime (DMSO): 10.1 ns
Cc1noc(C)c1Cn1cc(N2C(=O)CN(Cc3cccc(OS(=O)(=O)O)c3)C2=O)cn1  plasma concentration (Sprague-Dawley rat, male; oral, 30 mg/kg of parent drug, 4 h): 3370 ng/mL
CC(C)(C)[C@H](NC(=O)C(F)F)C(=O)N1C[C@H]2[C@@H]([C@H]1C(=O)N[C@H](C#N)C[C@@H]1CCCNC1=O)C2(C)C  intrinsic clearance (human liver microsomes; scaled to liver): 27.4 mL/min/kg
